Results gathered from unrelated publications.
Numbered parts are unrelated; each lists some results of a single study. Changes are numbered by the printed parent chain.

Sample 1 — target: CCNA2, cyclin fold, Cln2 fusion (human); method: yeast growth competition, sequencing; matrix: yeast; notes: strong parent motif; baseline: not given; direction: higher = stronger binding
Starting sequence: E2F1 docking peptide (human); PPVKRRLDLETDH
Substitution | normalised enrichment score
D8M | 4.01
K4P | 0.312
P2Y | 2.76
P2M | 2.47
V3F | 1.22
P2Q | 3.26
E10D | 5.45
P1N | 4.37
H13S | 4.72
D12K | 4.38
P2T | 3.94
P2E | 2.77
V3M | 0.921
K4E | 0.287
E10A | 3.9
D8V | 4.77
P1W | 4.41
P1G | 3.86
E10F | 4.14
K4I | 1.14
P1S | 1.54
R5S | -0.0468
K4N | 2.97

Sample 2 — target: UBE2D1 UBC core domain (UniProt P51668); method: yeast two-hybrid; matrix: yeast; notes: mostly zero background; baseline: not given; direction: higher = stronger interaction
Sequence of UniProt P51668 (whole entry, looked up): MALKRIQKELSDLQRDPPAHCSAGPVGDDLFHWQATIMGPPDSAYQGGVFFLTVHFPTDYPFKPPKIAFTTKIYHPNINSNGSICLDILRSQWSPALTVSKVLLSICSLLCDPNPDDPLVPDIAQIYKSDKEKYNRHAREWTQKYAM
B1: RNF152 RING domain (UniProt Q8N8N0); chain ETLSQDSLLECQICFNYYSPRRRPKLLDCKHTCCSVCLQQMRTSQKDVRCPWCRGVTKLPPGFS
B2: MEX3B RING domain (UniProt Q6ZN04); chain SGLRRKGSRDCSVCFESEVIAALVPCGHNLFCMECANRICEKSEPECPVCHTAVTQAIRIF
B3: TRIM22 RING domain (UniProt Q8IYM9); chain VKVDIEKEVTCPICLELLTEPLSLDCGHSFCQACITAKIKESVIISRGESSCPVCQTRFQPGNLRP
B4: RNF2 RING domain (UniProt Q99496); chain SPRSLHSELMCPICLDMLKNTMTTKECLHRFCADCIITALRSGNKECPTCRKKLVSKRSLR
B5: TRIM60 RING domain (UniProt Q495X7); chain ALVNLQEESSCPICLEYLKDPVTINCGHNFCRSCLSVSWKDLDDTFPCPVCRFCFPYKSFRR
B6: TRIM54 RING domain (UniProt Q9BYV2); chain SMDNLEKQLICPICLEMFSKPVVILPCQHNLCRKCANDVFQASNPLWQSRGSTTVSSGGRFRCPSCRHEVVLDRHGV
B7: TRIM31 RING domain (UniProt Q9BZY9); chain FVNKLQEEVICPICLDILQKPVTIDCGHNFCLKCITQIGETSCGFFKCPLCKTSVRKNAIRF
B8: RNF122 RING domain (UniProt Q9H9V4); chain AKKLQLYGQTCAVCLEDFKGKDELGVLPCQHAFHRKCLVKWLEVRCVCPMCNKPIASPSEAT
B9: TRIM26 RING domain (UniProt Q12899); chain PLRSLEEEVTCSICLDYLRDPVTIDCGHVFCRSCTTDVRPISGSRPVCPLCKKPFKKENIRP
Molecule | lacZ reporter activity
B1 (RNF152 RING domain) | 0
PEELAVNNDDCAICWDSMQAARKLPCGHLFHNSCLRSWLEQDTSCPTCRMSLNIADNNR (AMFR RING domain (UniProt Q9UKV5)) | 5170
YCEMGSTFQLCKICAENDKDVKIEPCGHLMCTSCLTAWQESDGQGCPFCRCEIKGTEPII (CBLB RING domain (UniProt Q13191)) | 0
B2 (MEX3B RING domain) | 0
B3 (TRIM22 RING domain) | 0
B4 (RNF2 RING domain) | 0
B5 (TRIM60 RING domain) | 0
B6 (TRIM54 RING domain) | 0
B7 (TRIM31 RING domain) | 0
B8 (RNF122 RING domain) | 2230
B9 (TRIM26 RING domain) | 0
QVQSRTKIEECVVCSDKKAAVLFQPCGHMCACENCANLMKKCVQCRAVVERRVPFI (MIB1 RING domain (UniProt Q86YT6)) | 0
LGTKLEAKYLCSACRNVLRRPFQAQCGHRYCSFCLASILSSGPQNCAACVHEGIYEEGIS (TRAF2 RING domain (UniProt Q12933)) | 0

Sample 3 — method: DHFR PCA, deep sequencing; matrix: yeast; together with: (+)-ABA 0.11 µM; baseline: wild-type fitted maximum; direction: higher = stronger binding
Target: ABI1, truncated, D143A, DHFR fusion (Arabidopsis thaliana)
Notes: methotrexate growth selection, single substitutions
Starting sequence: PYL1, truncated, DHFR fusion (Arabidopsis thaliana); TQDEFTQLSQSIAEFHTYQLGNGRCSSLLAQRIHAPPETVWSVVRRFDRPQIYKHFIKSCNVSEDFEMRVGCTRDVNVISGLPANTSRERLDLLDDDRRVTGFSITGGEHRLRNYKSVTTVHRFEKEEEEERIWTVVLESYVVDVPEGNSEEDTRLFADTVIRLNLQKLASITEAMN; partner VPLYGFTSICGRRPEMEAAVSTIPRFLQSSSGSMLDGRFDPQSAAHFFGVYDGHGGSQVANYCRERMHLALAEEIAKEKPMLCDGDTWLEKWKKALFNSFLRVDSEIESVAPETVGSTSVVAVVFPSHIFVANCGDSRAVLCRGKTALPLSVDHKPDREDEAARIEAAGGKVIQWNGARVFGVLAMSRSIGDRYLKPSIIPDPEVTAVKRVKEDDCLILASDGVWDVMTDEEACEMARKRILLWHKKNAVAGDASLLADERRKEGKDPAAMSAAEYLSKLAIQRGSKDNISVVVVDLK
Substitution | relative binding score
E127S | 39.2%
C72I | 10.8%
A175V | 15.7%
A35V | -0.753%
L28T | 5.6%
T17I | -9.05%
D48E | 4.36%
K54T | -6.89%
Q167T | 16.5%
K54Y | -3.12%
L8S | -0.0443%
T120L | -6.4%
L166Y | 6.26%
T154H | -3.07%
R163N | -5.32%
I52T | 32.7%
V62L | 22.9%
T101M | 65.4%
D153N | -0.586%
E127Q | 46.5%
N22D | 51.3%
E129M | 21.4%
L8F | 39.7%

Sample 4 — method: protein binding microarray; molecule type: double-stranded DNA, one strand shown; matrix: in vitro; tested at: not given; baseline: not given; direction: higher = stronger binding
Target: Histone acetyltransferase KAT6A, winged helix 2, GST fusion (KAT6A, Homo sapiens, UniProt Q92794, residues 85-181)
Notes: 8-mer, flanks averaged, mean of 2 arrays, mostly near background
Construct (chain): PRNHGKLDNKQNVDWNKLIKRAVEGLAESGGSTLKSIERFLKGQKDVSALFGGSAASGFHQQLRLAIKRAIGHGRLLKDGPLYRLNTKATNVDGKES
Sequence | E-score
AGACTGGG | 0.0272
TAGTCTAA | -0.199
CAGTCCGA | 0.0787
CTATAAGC | -0.132
CGATGAAG | 0.0517
GCTGACAA | 0.17
GATCCCGA | 0.141
AAGCGTGG | -0.0679
AAGAACGA | 0.155
CAGTTAGG | -0.0862
ACCCGTGA | -0.0485
ACGCCCAC | 0.0755
TAGTACGA | -0.121
CGCATACA | 0.0487
AAGGCAAC | 0.185
GTGTTAGA | -0.121
AATCACGG | 0.116
AAGTCGGC | -0.117
ATCCTGGG | 0.0575
AGTCTATA | -0.0542
AGCCATCC | 0.0722
GGTCACAA | 0.105
CCGGTTTA | -0.00937
